Results collected from several papers.
Protocols differ between the studies behind these lines. Numbers after ± are the reported error.
Sample: plasma

CC[C@H](C)[C@H](NC(=O)[C@H](CC(C)C)NC(=O)[C@H](Cc1c[nH]c2ccccc12)NC(=O)[C@H](CCC(N)=O)NC(=O)[C@@H](NC(=O)[C@H](Cc1ccccc1)NC(=O)[C@H](C)NC(=O)[C@H](CCCCNC(=O)COCCOCCNC(=O)COCCOCCNC(=O)CC[C@H](NC(=O)CCCCCCCCCCCCCCCCCCC(=O)O)C(=O)O)NC(=O)[C@H](CCC(N)=O)NC(=O)[C@H](C)NC(=O)[C@@H](NC(=O)[C@H](CCCCN)NC(=O)[C@H](CC(=O)O)NC(=O)[C@H](CC(C)C)NC(=O)C(C)(C)NC(=O)[C@@H](NC(=O)[C@H](CO)NC(=O)[C@H](Cc1ccc(O)cc1)NC(=O)[C@H](CC(=O)O)NC(=O)[C@H](CO)NC(=O)[C@@H](NC(=O)[C@H](Cc1ccccc1)NC(=O)[C@@H](NC(=O)CNC(=O)[C@H](CCC(=O)O)NC(=O)C(C)(C)NC(=O)[C@@H](N)Cc1ccc(O)cc1)[C@@H](C)O)[C@@H](C)O)[C@@H](C)CC)[C@@H](C)CC)C(C)C)C(=O)N[C@@H](C)C(=O)NCC(=O)NCC(=O)N1CCC[C@H]1C(=O)N[C@@H](CO)C(=O)N[C@@H](CO)C(=O)NCC(=O)N[C@@H](C)C(=O)N1CCC[C@H]1C(=O)N1CCC[C@H]1C(=O)N1CCC[C@H]1C(=O)N[C@@H](CO)C(N)=O — AUC(0-inf) (human, moderate renal impairment; subcutaneous, 5 mg single dose, eGFR 30-59, geometric mean): 104 µg·h/mL
COc1ccc(C[C@@H]2NC(=O)[C@H]([C@@H](C)O)NC(=O)[C@@H]3[C@@H]4CCN3C(=O)[C@@H]3Cc5cn(c6ccc(F)cc56)CCCCCCN(Cc5ccc(cc5)CCNC(=O)[C@]5(C)CCCN5C2=O)C(=O)CCC(=O)N[C@@H](C)C(=O)N[C@H](CNC(=O)CCCCC[N+](C)(C)C)C(=O)N[C@@H](Cc2cccc(c2)CNC(=O)CO4)C(=O)N3)cc1 — AUC(0-inf) (fasted healthy humans; oral, 35 mg single dose, with 1800 mg Labrasol, geometric mean): 540 nM·h
CC[C@@]1(O)C(=O)OCc2c1cc1n(c2=O)Cc2cc3c(CN(C)C)c(O)ccc3nc2-1 — AUC(0-inf) (human patients; oral, 8 mg weekly, day 15, geometric mean, with: pazopanib 800 mg daily): 0.237 µg·h/mL
COc1ccsc1CNCC[C@@]1(c2ccccn2)CCOC2(CCCC2)C1 — AUC(0-inf) (healthy human, normal hepatic function; intravenous, 1 mg single dose, arithmetic mean): 0.0245 ± 0.0075 µg·h/mL
CCCCCOc1ccc(-c2ccc(-c3ccc(C(=O)N[C@H]4C[C@@H](O)[C@@H](OCC[N+](C)(C)C)NC(=O)[C@@H]5[C@@H](O)[C@@H](C)CN5C(=O)[C@H]([C@@H](C)O)NC(=O)[C@H]([C@H](O)[C@@H](O)c5ccc(O)cc5)NC(=O)[C@@H]5C[C@@H](O)CN5C(=O)[C@H]([C@@H](C)O)NC4=O)cc3)cc2)cc1 — AUC(0-inf) (healthy adult human; subcutaneous, 10 mg): 40.1 µg·h/mL
O[C@H]1CCCN[C@@H]1CCCn1cnc2c(Cl)c(Cl)ccc21 — AUC(0-inf) (human; oral, 500 mg single dose, tablet, geometric mean): 2.34 µg·h/mL
CC[C@H](C)[C@H](NC(=O)[C@H](CC(C)C)NC(=O)[C@H](Cc1c[nH]c2ccccc12)NC(=O)[C@H](CCC(N)=O)NC(=O)[C@@H](NC(=O)[C@H](Cc1ccccc1)NC(=O)[C@H](C)NC(=O)[C@H](CCCCNC(=O)COCCOCCNC(=O)COCCOCCNC(=O)CC[C@H](NC(=O)CCCCCCCCCCCCCCCCCCC(=O)O)C(=O)O)NC(=O)[C@H](CCC(N)=O)NC(=O)[C@H](C)NC(=O)[C@@H](NC(=O)[C@H](CCCCN)NC(=O)[C@H](CC(=O)O)NC(=O)[C@H](CC(C)C)NC(=O)C(C)(C)NC(=O)[C@@H](NC(=O)[C@H](CO)NC(=O)[C@H](Cc1ccc(O)cc1)NC(=O)[C@H](CC(=O)O)NC(=O)[C@H](CO)NC(=O)[C@@H](NC(=O)[C@H](Cc1ccccc1)NC(=O)[C@@H](NC(=O)CNC(=O)[C@H](CCC(=O)O)NC(=O)C(C)(C)NC(=O)[C@@H](N)Cc1ccc(O)cc1)[C@@H](C)O)[C@@H](C)O)[C@@H](C)CC)[C@@H](C)CC)C(C)C)C(=O)N[C@@H](C)C(=O)NCC(=O)NCC(=O)N1CCC[C@H]1C(=O)N[C@@H](CO)C(=O)N[C@@H](CO)C(=O)NCC(=O)N[C@@H](C)C(=O)N1CCC[C@H]1C(=O)N1CCC[C@H]1C(=O)N1CCC[C@H]1C(=O)N[C@@H](CO)C(N)=O — AUC(0-inf) (human, severe hepatic impairment; subcutaneous, 5 mg): 74.6 µg·h/mL
Oc1ccc2ccc3c4ccccc4cc4ccc1c2c43 — AUC(0-inf) (UPLC-AMS; human; oral, 25 ng of [14C]-BaP): 21 ± 27.9 fg BaP equivalents·h/mL

A few entries again:
Oc1ccc2ccc3c4ccccc4cc4ccc1c2c43 — AUC(0-inf) (UPLC-AMS; human; oral, 25 ng of [14C]-BaP): 21 ± 27.9 fg BaP equivalents·h/mL
